Measured values from different studies.
Each numbered part is a random draw from the data of one study; scales do not carry over between parts.

Set 1
Target: Sal-like protein 4, full length isoform B (SALL4, Homo sapiens, UniProt Q9UJQ4-2, residues 1-616)
Technique: universal PBM
Molecule type: double-stranded DNA, one strand shown
Medium: in vitro
Tested at: not given
Setting: 8-mer, flanks averaged, mean of replicates
Reading: higher = stronger binding
Target sequence (chain): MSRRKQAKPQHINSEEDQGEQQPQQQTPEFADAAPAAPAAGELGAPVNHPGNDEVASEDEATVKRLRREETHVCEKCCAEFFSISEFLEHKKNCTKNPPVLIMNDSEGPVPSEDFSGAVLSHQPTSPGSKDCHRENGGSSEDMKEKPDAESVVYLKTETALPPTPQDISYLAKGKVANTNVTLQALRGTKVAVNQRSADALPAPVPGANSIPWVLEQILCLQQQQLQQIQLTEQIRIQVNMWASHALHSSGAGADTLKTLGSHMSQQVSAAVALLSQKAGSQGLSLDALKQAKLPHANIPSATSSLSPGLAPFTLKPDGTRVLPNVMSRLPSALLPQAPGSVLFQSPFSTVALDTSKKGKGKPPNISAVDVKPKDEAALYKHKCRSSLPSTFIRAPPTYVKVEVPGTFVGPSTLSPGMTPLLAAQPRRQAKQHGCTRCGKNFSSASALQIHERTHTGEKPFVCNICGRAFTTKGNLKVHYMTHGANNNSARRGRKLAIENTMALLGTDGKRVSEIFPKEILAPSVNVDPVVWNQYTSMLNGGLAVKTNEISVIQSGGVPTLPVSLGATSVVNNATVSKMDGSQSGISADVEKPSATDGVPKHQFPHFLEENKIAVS
`GCTCTACA` has an E-score of -0.0743.
`GAAATACA` has an E-score of 0.221.
`AGTTGTCC` has an E-score of 0.0116.
The E-score of `TCAGGAAA` is reported as 0.0225.
The E-score of `AATTCACG` is reported as 0.11.
With `CTAGAAGC` the E-score was -0.218.
For `AGGCATGC`, the E-score was -0.019.

Set 2
Target: Interferon regulatory factor 7, full length, phosphomimetic (IRF7, Homo sapiens, UniProt Q92985, residues 1-503, S101K/S471D/S472D/S475D/S476D/S477D/S483D/S484D/S487D)
Technique: protein-binding microarray
Molecule type: double-stranded DNA, one strand shown
Medium: in vitro
Tested at: 250 nM
Setting: 60-bp whole probe
Together with: salmon DNA 0.4 mg/ml
Reference: random background probes
Reading: higher = stronger binding
Constant ends, left off below: GCCTAGCAC … GTCTTGATTCGCTTGACGCTGCTG
Residues (chain): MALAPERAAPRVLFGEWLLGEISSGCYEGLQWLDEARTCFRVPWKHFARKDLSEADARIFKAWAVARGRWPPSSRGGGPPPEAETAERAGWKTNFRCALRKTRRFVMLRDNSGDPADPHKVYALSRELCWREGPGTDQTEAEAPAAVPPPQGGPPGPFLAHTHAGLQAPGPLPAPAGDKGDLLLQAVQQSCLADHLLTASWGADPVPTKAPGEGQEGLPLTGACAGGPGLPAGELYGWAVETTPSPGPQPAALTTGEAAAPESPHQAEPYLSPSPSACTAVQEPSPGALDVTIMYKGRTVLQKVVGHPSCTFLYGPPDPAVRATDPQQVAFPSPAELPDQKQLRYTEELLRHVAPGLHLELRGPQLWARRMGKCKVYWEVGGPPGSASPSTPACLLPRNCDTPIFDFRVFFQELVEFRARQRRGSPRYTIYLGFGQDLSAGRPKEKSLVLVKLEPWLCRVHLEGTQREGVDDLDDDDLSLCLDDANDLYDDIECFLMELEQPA
`GACGGTCTCGGACTGGGGATGTGCTAG` has a log fluorescence of 0.137 z-score.
With `TCATCATTATTGTGTCAAACTGTGCTA` the log fluorescence was 0.469 z-score.
For `TTAGATTTCGGCACTGGATTAGTGCTA`, the log fluorescence was 0.0386 z-score.
`GACGATTTCATTATCGAGACGTGCTAG` has a log fluorescence of 0.527 z-score.
The log fluorescence of `CTCAGTTTATTTATTTTTACGTGCTAG` is reported as 0.377 z-score.
With `CCCCCTTTTATATTGTAAGCGTGCTAG` the log fluorescence was 0.459 z-score.
`TTGGGTTTCGACACTGGGTTAGTGCTA` has a log fluorescence of 2.34 z-score.
`AGACGAATCATATCAAAATTGTGCTAG` has a log fluorescence of -0.0418 z-score.

Set 3
Target: RNA binding protein fox-1 homolog 2, RRM domain, GST-SBP tag (RBFOX2, Homo sapiens, UniProt O43251-10, residues 100-194)
Technique: RNA Bind-n-Seq
Molecule type: RNA
Medium: in vitro
Tested at: 365 nM
Setting: natural RNA segment, single round, ends assumed
Reference: no-protein control
Reading: higher = stronger binding
Residues (chain): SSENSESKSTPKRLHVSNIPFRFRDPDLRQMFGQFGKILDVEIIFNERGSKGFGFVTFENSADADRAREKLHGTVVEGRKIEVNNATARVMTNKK
Under “RBNS enrichment (R)”, `GGGAGUUCUACAGUCCGACGAUCCAUACUAUGCAGUUUUUAUGUUUUCCAUAGUAAGUCAGAAAAUGCCUCCUAUUUCUGGCAUCAGAACUUUGCCAUUUGUCUACAGAAGACGAACCAGAGACAAAAUUACUUGGAAUUCUCGGGUGCCAA` is recorded as 0.629.
For `GGGAGUUCUACAGUCCGACGAUCCCUCCUCCCUCGCCUCCAGUGGAGGCUGAGCUGACCCUGGGCUGCUGGAGGCCAGACUGGGCUGUAGUUAGCUUUUCAUCCCUAAAGAAGGCUCCUUUCCCUAAGGAACCUGGAAUUCUCGGGUGCCAA`, “RBNS enrichment (R)” read 0.264.
`GGGAGUUCUACAGUCCGACGAUCGUUAUAUAAAAAAAUUGUAAAUGUUUAAUAUCUGACUGAAAUUAAACGAGCGAAGAUGAGCACCACCUCCCGUGUCUGCAGUUGUAUUUCCUGGUGCUUGCCCUGUGUUGUGGAAUUCUCGGGUGCCAA`: “RBNS enrichment (R)” 1.79.
`GGGAGUUCUACAGUCCGACGAUCGAGAGUUAGACAGCAACUUACCUACUCUGAAGUUUUCUACAACAAAAAAAGAGUUGAGUGAAUCUGUUUACAUUUAGAAUAAUGUUUUUUUCUUCAAGAGACGCAAUUGCUGGAAUUCUCGGGUGCCAA`: “RBNS enrichment (R)” 0.405.

Mixed results
`PhoQ, residues 284 288 289 292 302 303 GLASVI` gave a fold induction of 21.9 (PhoP, residues 12 14 15 18 19 GHCSL (Escherichia coli, UniProt P23836); Sort-seq, refers to: YFP reporter; E. coli; PhoQ-PhoP variant library, together with: 10 µM Mg2+; reference: high Mg2+ state, higher = stronger signaling).

Some of these lines once more (set 3):
For `GGGAGUUCUACAGUCCGACGAUCCCUCCUCCCUCGCCUCCAGUGGAGGCUGAGCUGACCCUGGGCUGCUGGAGGCCAGACUGGGCUGUAGUUAGCUUUUCAUCCCUAAAGAAGGCUCCUUUCCCUAAGGAACCUGGAAUUCUCGGGUGCCAA`, “RBNS enrichment (R)” read 0.264.
Under “RBNS enrichment (R)”, `GGGAGUUCUACAGUCCGACGAUCCAUACUAUGCAGUUUUUAUGUUUUCCAUAGUAAGUCAGAAAAUGCCUCCUAUUUCUGGCAUCAGAACUUUGCCAUUUGUCUACAGAAGACGAACCAGAGACAAAAUUACUUGGAAUUCUCGGGUGCCAA` is recorded as 0.629.
`GGGAGUUCUACAGUCCGACGAUCGUUAUAUAAAAAAAUUGUAAAUGUUUAAUAUCUGACUGAAAUUAAACGAGCGAAGAUGAGCACCACCUCCCGUGUCUGCAGUUGUAUUUCCUGGUGCUUGCCCUGUGUUGUGGAAUUCUCGGGUGCCAA`: “RBNS enrichment (R)” 1.79.
